Assay results from different studies.
Numbered parts are unrelated; each lists some results of a single study. Positions count from the first letter of the parent shown.
UniProt Q96SW2, sequence (whole entry, looked up): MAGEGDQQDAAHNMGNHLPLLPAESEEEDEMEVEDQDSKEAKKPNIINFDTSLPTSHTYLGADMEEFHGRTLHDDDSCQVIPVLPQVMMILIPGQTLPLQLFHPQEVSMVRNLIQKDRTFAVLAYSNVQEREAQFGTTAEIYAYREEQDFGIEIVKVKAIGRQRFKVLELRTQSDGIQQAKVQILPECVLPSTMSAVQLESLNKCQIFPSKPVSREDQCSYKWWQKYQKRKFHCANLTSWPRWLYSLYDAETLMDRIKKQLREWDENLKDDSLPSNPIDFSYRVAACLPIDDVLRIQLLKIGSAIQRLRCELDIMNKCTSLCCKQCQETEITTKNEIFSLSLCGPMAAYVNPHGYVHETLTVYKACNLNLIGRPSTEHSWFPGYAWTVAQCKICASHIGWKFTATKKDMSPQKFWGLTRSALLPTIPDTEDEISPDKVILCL
UniProt P41595, sequence (whole entry, looked up): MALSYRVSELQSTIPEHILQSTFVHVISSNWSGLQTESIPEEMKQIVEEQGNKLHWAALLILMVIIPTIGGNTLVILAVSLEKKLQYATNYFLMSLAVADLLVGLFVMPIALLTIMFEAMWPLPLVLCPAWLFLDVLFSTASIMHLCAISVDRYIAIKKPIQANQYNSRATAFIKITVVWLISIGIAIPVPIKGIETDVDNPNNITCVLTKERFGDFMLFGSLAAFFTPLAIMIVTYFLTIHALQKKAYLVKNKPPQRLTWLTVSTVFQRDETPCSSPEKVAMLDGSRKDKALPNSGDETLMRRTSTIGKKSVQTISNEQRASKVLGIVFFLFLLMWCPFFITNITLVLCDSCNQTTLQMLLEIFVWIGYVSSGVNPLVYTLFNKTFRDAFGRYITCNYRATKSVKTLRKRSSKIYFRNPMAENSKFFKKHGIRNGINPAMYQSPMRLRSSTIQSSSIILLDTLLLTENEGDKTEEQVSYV
UniProt Q9UKS7, sequence (whole entry, looked up): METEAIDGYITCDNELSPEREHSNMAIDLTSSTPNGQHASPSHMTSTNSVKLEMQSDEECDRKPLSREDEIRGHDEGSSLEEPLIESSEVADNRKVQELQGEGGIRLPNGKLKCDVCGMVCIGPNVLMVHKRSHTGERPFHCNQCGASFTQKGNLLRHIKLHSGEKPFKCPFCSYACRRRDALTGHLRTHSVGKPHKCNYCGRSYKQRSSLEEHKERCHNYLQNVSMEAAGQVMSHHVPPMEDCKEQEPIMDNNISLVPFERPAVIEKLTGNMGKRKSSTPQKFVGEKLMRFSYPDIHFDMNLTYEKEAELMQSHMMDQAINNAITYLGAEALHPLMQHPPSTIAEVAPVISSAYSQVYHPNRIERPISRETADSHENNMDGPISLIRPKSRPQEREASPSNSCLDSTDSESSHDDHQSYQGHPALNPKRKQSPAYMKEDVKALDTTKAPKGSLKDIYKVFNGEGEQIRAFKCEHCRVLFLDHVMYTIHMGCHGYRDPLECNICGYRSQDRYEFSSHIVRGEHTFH
UniProt O75676, sequence (whole entry, looked up): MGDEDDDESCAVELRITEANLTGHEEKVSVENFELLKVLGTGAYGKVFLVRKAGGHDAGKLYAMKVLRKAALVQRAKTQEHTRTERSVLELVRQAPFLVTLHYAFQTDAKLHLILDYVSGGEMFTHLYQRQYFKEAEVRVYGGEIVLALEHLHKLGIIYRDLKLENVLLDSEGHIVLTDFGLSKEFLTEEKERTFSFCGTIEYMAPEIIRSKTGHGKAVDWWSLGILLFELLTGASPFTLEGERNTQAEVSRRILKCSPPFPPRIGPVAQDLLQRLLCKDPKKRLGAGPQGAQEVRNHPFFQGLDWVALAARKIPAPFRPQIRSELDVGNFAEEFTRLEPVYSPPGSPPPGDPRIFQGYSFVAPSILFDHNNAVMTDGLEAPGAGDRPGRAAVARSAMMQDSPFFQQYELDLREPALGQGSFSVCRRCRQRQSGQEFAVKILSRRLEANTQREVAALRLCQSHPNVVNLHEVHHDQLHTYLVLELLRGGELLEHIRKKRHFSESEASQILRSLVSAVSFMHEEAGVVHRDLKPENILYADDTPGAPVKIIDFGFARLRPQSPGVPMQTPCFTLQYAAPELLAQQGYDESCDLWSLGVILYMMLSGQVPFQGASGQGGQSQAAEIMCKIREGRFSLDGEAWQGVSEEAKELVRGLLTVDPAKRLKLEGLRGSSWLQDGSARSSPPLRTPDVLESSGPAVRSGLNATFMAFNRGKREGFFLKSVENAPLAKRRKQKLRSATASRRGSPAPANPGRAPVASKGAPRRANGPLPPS

Set 1 — target: CCNB1, cyclin fold, Cln2 fusion (human); method: yeast growth competition, sequencing; sample: yeast; setting: strong parent motif; relative to: not given; direction: higher = stronger binding; quantity: normalised enrichment score
Parent: viral docking peptide; YKVKRRLVFGADD; partner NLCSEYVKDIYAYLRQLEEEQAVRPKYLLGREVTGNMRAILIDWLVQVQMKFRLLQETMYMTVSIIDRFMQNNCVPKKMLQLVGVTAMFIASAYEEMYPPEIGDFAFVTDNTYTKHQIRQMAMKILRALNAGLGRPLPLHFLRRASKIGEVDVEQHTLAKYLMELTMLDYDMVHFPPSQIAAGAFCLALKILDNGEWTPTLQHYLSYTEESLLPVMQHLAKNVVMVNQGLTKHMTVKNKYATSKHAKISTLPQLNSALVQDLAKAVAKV
L7A: 0.191
R6A: 1.54
K2T: 4.28
G10E: 4.85
A11N: 4.29
V8P: 0.272
L7Y: 0.314
F9H: 0.179

Set 2 — target: tungstate, free oxyanion; method: microfluidic competitive inhibition; sample: in vitro, cell-free expressed; tested at: not given; direction: lower = stronger binding; quantity: oxyanion analog dissociation constant
Setting: derived from inhibition constants, unchanged parent 2230 nM
Parent: PafA, mature enzyme, eGFP fusion (Elizabethkingia meningoseptica, UniProt Q9KJX5); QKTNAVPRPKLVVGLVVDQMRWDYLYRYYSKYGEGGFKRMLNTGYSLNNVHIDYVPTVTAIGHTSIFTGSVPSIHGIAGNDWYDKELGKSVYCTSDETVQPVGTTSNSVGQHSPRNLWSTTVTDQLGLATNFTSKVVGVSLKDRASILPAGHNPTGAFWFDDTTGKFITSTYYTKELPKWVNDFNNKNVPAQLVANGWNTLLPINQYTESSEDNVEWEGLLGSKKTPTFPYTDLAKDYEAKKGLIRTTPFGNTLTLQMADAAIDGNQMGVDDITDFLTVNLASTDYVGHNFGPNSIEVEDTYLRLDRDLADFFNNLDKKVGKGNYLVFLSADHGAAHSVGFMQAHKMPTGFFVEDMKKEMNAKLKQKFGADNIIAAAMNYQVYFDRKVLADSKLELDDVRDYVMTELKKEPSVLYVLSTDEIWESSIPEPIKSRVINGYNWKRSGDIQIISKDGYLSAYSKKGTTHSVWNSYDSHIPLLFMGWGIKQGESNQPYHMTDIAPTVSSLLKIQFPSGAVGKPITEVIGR
F352G: 1870 nM
Y24V: 2080 nM
P101V: 1960 nM
S444G: 1600 nM
L202G: 1860 nM
H51G: 2360 nM
Y172V: 1980 nM
I373G: 1680 nM

Other studies, line by line
CNC(=O)Nc1ccc2c(c1)CC[C@]21OC(=O)N(CC(=O)N(Cc2ccc(F)cc2)[C@@H](C)C(F)(F)F)C1=O — inhibition (Sodium-dependent serotonin transporter (SLC6A4, Homo sapiens, UniProt P31645); ligand displacement; 10 µM): 95.6%
Cc1sc2c(c1C)C(c1ccc(Cl)cc1)=N[C@@H](CC(=O)Nc1ccc(O)cc1)c1nnc(C)n1-2 — nuclei count (mouse MPNST tumor cells; high-content nuclear imaging, refers to: cell number; 10 µM, 12 h, mean of 2 replicates; relative to: plate mean, higher = more cells): -2.76 z-score
COc1ccc2c(c1)O[C@H](c1ccc(OC)c(OC)c1)C[C@@H]2NC(=O)C1(c2ccc3c(c2)OC(F)(F)O3)CC1 — remaining binding (Calcium-dependent protein kinase 1 (CDPK1, Plasmodium falciparum, UniProt P62344); cell-free assay, competition with immobilised ligand; 1 µM): 79%
NC(=O)C[S@@+]([O-])C(c1ccccc1)c1ccccc1 — viability (A-375; 100 µM, 36 h): 123%
Cc1c(N2CCNCC2)nc2ccc(Br)cc2c1C(=O)NC[C@H](CCC(=O)O)c1ccccc1Cl — inhibition (5-hydroxytryptamine receptor 2B (HTR2B, Homo sapiens, UniProt P41595); ligand displacement; 10 µM): 31%
O=C1CCC(N2Cc3c(ccc4c3OCC43CCN(Cc4ccccc4)CC3)C2=O)C(=O)N1 (centres unmarked) — protein remaining (CRBN/Zinc finger protein Helios (Homo sapiens, UniProt Q96SW2+Q9UKS7); degrader, HiBiT; HEK293; 1.524 nM, 6 h): 92.8%
O=C(NCc1ncc(C(F)(F)F)cc1Cl)c1ccc2c(c1)C1(CCS(=O)(=O)CC1)[C@@H](C1CC1)N2S(=O)(=O)c1ccc(F)cc1 — remaining binding (Ribosomal protein S6 kinase alpha-4, N-terminal kinase domain (RPS6KA4, Homo sapiens, UniProt O75676); cell-free assay, competition with immobilised ligand; 1 µM): 96%

Excerpt of the above (other studies, line by line):
CNC(=O)Nc1ccc2c(c1)CC[C@]21OC(=O)N(CC(=O)N(Cc2ccc(F)cc2)[C@@H](C)C(F)(F)F)C1=O — inhibition (Sodium-dependent serotonin transporter (SLC6A4, Homo sapiens, UniProt P31645); ligand displacement; 10 µM): 95.6%
NC(=O)C[S@@+]([O-])C(c1ccccc1)c1ccccc1 — viability (A-375; 100 µM, 36 h): 123%
